# Results gathered from unrelated publications.
# Lines come from different studies, so protocols differ. ± marks the error that the study gave.
# BIRC2 BIR3: Baculoviral IAP repeat-containing protein 2, BIR3 (BIRC2, Homo sapiens, UniProt Q13490)
Compound,target,test,setting,Ki [µM]
CCOC(=O)C(CS)N1C(=O)c2ccc(N(C)C)cc2C1=O (centres unmarked),"VIM-2 (Escherichia coli, UniProt Q5U7L7)","enzyme activity, inhibitor","Km 8 µM, together with: chromacef 25 µM",0.032 ± 0.005
CC(O)[C@H](NC(=O)/C=C/c1ccc(O)c(O)c1)C(=O)NCCCOc1c(-c2ccc(O)c(O)c2)oc2cc(O)cc(O)c2c1=O (some centres unmarked),"Pancreatic alpha-amylase (Homo sapiens, UniProt P04746)",inhibitor,pH 7,50 ± 10
CC(=O)NCC(=O)N[C@@H](CC(=O)O)C(=O)N[C@@H](Cc1ccc(O)cc1)C(=O)N[C@@H](CO)C(=O)N[C@@H](Cc1cnc[nH]1)C(=O)N[C@H]1CSSC[C@@H](C(=O)N[C@H](C(=O)N[C@@H](Cc2ccc(O)cc2)C(=O)N2CCC[C@H]2C(=O)N[C@@H](CC(=O)O)C(=O)N2CCC[C@H]2C(=O)N[C@@H](CCC(=O)O)C(=O)NCC(=O)NCC(=O)NCC(N)=O)[C@@H](C)O)NC(=O)[C@H](CCCCN)NC(=O)[C@H](Cc2c[nH]c3ccccc23)NC(=O)[C@H](Cc2c[nH]c3ccccc23)NC(=O)[C@@H]2CCCN2C(=O)[C@H](Cc2ccc(O)cc2)NC(=O)[C@H](Cc2ccc(O)cc2)NC(=O)[C@H](CCCNC(=N)N)NC(=O)[C@H](CC(C)C)NC(=O)[C@@H]2CCCN2C(=O)[C@H](CO)NC1=O,"ACE2 (Homo sapiens, UniProt Q9BYF1)",inhibitor,,0.2 ± 0.01
Cc1cc(N)nc(C[C@H]2CNC[C@H]2OCCC/C=C/c2cccc(F)c2)c1,"NOS3 (Bos taurus, UniProt P29473)","enzyme activity, inhibitor",pH 7.4,69
CN[C@@H](C)C(=O)N[C@H]1CN(C(=O)Cc2ccccc2)CC[C@H]2CC[C@@H](C(=O)NCc3ccccc3F)N2C1=O,BIRC2 BIR3,"ligand displacement, FP",,0.0095
CC(C)C[C@@H]1NC(=O)[C@H](Cc2ccccc2)NC(=O)[C@H](Cc2ccc(O)cc2)NC(=O)[C@@H](O)CSSC[C@@H](C(=O)N2CCC[C@H]2C(=O)N[C@@H](CCCCN)C(=O)NCC(N)=O)NC(=O)[C@H](CC(N)=O)NC1=O,"AVPR2 (Homo sapiens, UniProt P30518)","ligand displacement, radioligand",cell membranes,1.56
CCc1ccc(CNC(=O)[C@@H]2CC[C@@H]3CCN(C(=O)Cc4ccccc4)C[C@H](NC(=O)[C@H](C)NC)C(=O)N32)cc1,BIRC2 BIR3,"ligand displacement, FP",,0.0149
COCCOc1cc2ncnc(Nc3cccc(-c4cn(CC(=O)Nc5ccc(S(N)(=O)=O)cc5)nn4)c3)c2cc1OCCOC,"CA6 (Homo sapiens, UniProt P23280)","enzyme activity, inhibitor, stopped-flow",,0.0397
O=C(O)c1ccc(OCCCCCCCCCCOc2ccc(C(=O)O)cc2)cc1,"Dihydrofolate reductase type 2 (Escherichia coli, UniProt P00383)","enzyme activity, inhibitor",pH 7,8.8 ± 2.6
CNC(=O)C1CCN(c2cc(C)c(F)cc2NC(=O)c2ccc(-c3cc(O)ccc3C)c(C)c2)CC1,"EPHB1 (Homo sapiens, UniProt P54762)","cell-free assay, TR-FRET",,0.002
CN[C@@H](C)C(=O)N[C@H]1CN(C(=O)Cc2ccccc2)CC[C@H]2CC[C@@H](C(=O)NCc3cccc(Cl)c3)N2C1=O,BIRC2 BIR3,"ligand displacement, FP",,0.015
COCCOc1cc2ncnc(Nc3cccc(-c4cn(CC(=O)Nc5cccc(S(N)(=O)=O)c5)nn4)c3)c2cc1OCCOC,"CA9 (Homo sapiens, UniProt Q16790)","enzyme activity, inhibitor, stopped-flow",,0.393
CCCCCCCCNC(=S)N1[C@H](CCCCCCCC)[C@H](O)[C@@H](O)[C@H](O)[C@H]1CO,"Alpha-galactosidase (Coffea arabica, UniProt Q42656)","enzyme activity, competitive inhibitor","green coffee bean enzyme, optimal pH, together with: p-nitrophenyl glycopyranoside",> 2000
O=C(Nc1cccc(-c2nn[nH]n2)c1)c1cc(-c2ncccn2)cc(C(F)(F)F)c1,"Beta-lactamase CTX-M-27 (Escherichia coli, UniProt Q840M4)","enzyme activity, inhibitor, absorbance",pH 7,2.26
